Assay results pooled from the literature.
A part holds a random share of what one study measured.

Study 1
Target: Interferon regulatory factor 3, full length, phosphomimetic (IRF3, Homo sapiens, UniProt Q14653, residues 1-427, S386D/S396D/S398D/S402D/T404D/S405D)
Technique: protein-binding microarray
Molecule type: double-stranded DNA, one strand shown
Medium: in vitro
Tested at: 2540 nM top
Setting: 60-bp whole probe
Added: salmon DNA 0.4 mg/ml
Relative to: random background probes
Direction: higher = stronger binding
Quantity: fitted relative affinity
Target sequence (chain): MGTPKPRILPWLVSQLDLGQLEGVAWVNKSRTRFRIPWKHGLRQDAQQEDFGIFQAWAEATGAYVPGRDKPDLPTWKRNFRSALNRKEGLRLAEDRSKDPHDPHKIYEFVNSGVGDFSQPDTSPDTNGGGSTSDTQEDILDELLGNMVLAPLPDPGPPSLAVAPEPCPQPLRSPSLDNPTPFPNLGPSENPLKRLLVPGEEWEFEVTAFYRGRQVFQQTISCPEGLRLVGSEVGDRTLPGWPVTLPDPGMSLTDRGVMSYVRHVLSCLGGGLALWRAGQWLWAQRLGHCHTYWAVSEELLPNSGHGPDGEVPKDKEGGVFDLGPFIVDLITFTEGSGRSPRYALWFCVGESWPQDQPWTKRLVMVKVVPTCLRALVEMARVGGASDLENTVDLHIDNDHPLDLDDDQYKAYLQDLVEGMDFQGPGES
GCCTAGCACGACGGTCTCCGTCTCCTGACGTGCTAGGTCTTGATTCGCTTGACGCTGCTG: 1.89 z-score
GCCTAGCACCTTACTTTATGTAGGAAGTCGTGCTAGGTCTTGATTCGCTTGACGCTGCTG: 0.803 z-score
GCCTAGCACTTAGAACCGAGTATCGATTAGTGCTAGGTCTTGATTCGCTTGACGCTGCTG: 0.365 z-score

Study 2
Target: Histone acetyltransferase KAT6A, both winged helices, GST fusion (KAT6A, Homo sapiens, UniProt Q92794, residues 1-181)
Technique: protein binding microarray
Molecule type: double-stranded DNA, one strand shown
Medium: in vitro
Tested at: not given
Setting: 8-mer, flanks averaged, mean of 2 arrays, mostly near background
Relative to: not given
Direction: higher = stronger binding
Quantity: E-score
Target sequence (chain): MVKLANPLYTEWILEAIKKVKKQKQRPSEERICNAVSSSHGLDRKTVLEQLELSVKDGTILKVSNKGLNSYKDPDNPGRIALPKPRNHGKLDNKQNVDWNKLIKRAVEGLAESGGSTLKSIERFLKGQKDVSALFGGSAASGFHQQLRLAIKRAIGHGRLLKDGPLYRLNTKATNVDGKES
CCAATCGA: -0.0861
CCCGCTTA: 0.147
AAAAGCTC: -0.105
AAGAGTAA: 0.0156
AGTACGCC: 0.173

Single results of other studies
FHL1 DNA-binding domain: Pre-rRNA-processing protein FHL1, DNA-binding domain (FHL1, Saccharomyces cerevisiae, UniProt P39521, residues 401-638)
Chain of UniProt P39521 (401-638, looked up): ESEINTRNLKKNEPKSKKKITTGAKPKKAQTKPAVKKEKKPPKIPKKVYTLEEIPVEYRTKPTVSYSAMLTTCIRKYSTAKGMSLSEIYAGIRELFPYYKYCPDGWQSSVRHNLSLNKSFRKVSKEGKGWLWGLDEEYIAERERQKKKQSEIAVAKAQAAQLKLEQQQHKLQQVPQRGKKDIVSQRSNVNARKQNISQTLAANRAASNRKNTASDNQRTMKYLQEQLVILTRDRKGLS
CACGCA  relative binding free energy (FHL1 DNA-binding domain; SELEX-seq; double-stranded DNA, one strand shown, in vitro; not given, 6-bp core, flanks averaged; relative to: best-binding core, lower = stronger binding): 0.07 ddG/RT
PhoQ, residues 284 288 289 292 302 303 SLANIV  fold induction (PhoP, residues 12 14 15 18 19 SQCLL (Escherichia coli, UniProt P23836); Sort-seq, refers to: YFP reporter; E. coli; PhoQ-PhoP variant library, added: 10 µM Mg2+; relative to: high Mg2+ state, higher = stronger signaling): 14.6
GGCGCA  relative binding free energy (FHL1 DNA-binding domain; SELEX-seq; double-stranded DNA, one strand shown, in vitro; not given, 6-bp core, flanks averaged; relative to: best-binding core, lower = stronger binding): 0.36 ddG/RT

Repeated from above (study 2):
CCAATCGA: -0.0861
